Results from different studies.
Compare with care: the assays were run in different laboratories. Values joined by “and” are separate records of one study, mostly repeats; a detail may differ. Numbers after ± are the reported error.

COc1cc(N2CCC(N3CCN(C)CC3)CC2)ccc1Nc1ncc(Cl)c(Nc2ccccc2P(C)(C)=O)n1  tumour volume (nude mice, NCI-H3122 xenograft; intraperitoneal, 10 mg/kg every other day, day 15): 345 mm3 and 275 mm3 and 355 mm3 and 400 mm3 and 195 mm3
C[C@H](NC(=O)c1c(C(F)F)nn(C)c1Oc1cccc(C(F)(F)F)c1)c1ccc(C(=O)O)cc1  partial response (irRECIST; human, advanced tumours; 125 mg; best overall response): 0%
COc1cc2cc(-c3ccc(CC(=O)Nc4cc(C(C)(C)C(F)(F)F)no4)cn3)cnc2cc1OC  best overall response PR (RECIST v1.1; human RET-altered solid tumours; 12 75 mg tablets, phase I): 17%
C=CC[C@@H]1/C=C(\C)C[C@H](C)C[C@H](OC)[C@H]2O[C@@](O)(C(=O)C(=O)N3CCCC[C@H]3C(=O)O[C@H](/C(C)=C/[C@@H]3CC[C@@H](O)[C@H](OC)C3)[C@H](C)[C@@H](O)CC1=O)[C@H](C)C[C@@H]2OC  day of graft harvest (rhesus monkey kidney transplant): 100 days
O=C(O)CNC(=O)Cc1ccccc1  sarcomere length (ventricular cardiomyocytes, C57BL/6 mouse; dose not given, 0.236 s): 1.64 µm
Cn1cc(Nc2nccc(-c3ccc4c(c3)CN(C3COC3)CC[C@H]4NC(=O)c3cn(C(C)(C)C)nn3)n2)cn1  pathway activation z-score (item: Endometrial Cancer Signaling; splenic B cells, Mus musculus; 30 mg/kg, with: IgD activation; relative to: vehicle, direction not given): 1
CCN1CCN(Cc2ccc(Nc3ncc(F)c(-c4cc(F)c5nc6n(c5c4)[C@H](C)CCC6)n3)nc2)CC1  partial response (human advanced solid tumours; 50 mg, phase Ia monotherapy RECIST 1.1): 0%
Cc1cc(-c2nnc(N)nc2-c2ccc(F)cc2)cc(Cl)n1  GSVA score change (NanoString, item: T.helper.cells.Prat.IO signature; human mCRPC, peripheral blood; dose not given, 2 or 4 weeks; relative to: baseline, direction not given): -0.244
CC1=NN(c2ccccc2)C(=O)C1  brain tissue loss (Nissl staining; Rattus norvegicus, MCAO/R model; concentration not given, post-MCAO/R, day 21): 6.59%
O=C(O)CNC(=O)C(CS)Cc1ccccc1 (stereo not drawn)  extracellular enkephalin concentration (inhibitor, LC-MS/MS, item: Met- or Leu-enkephalin; mouse striatal brain slices; 10 µM, 20 min, with: 50 mM KCl): 1050 pM and 861 pM and 667 pM and 983 pM and 100 pM and 1830 pM and 490 pM
N#Cc1ccc2c(c1)[C@H]1CCCN(C(=O)c3ccc4[nH]cnc4c3)[C@H]1C2  change from baseline (item: FPG; human, Phase II trial; oral, 240 mg once daily, day 28, adjusted mean, SE): 6.1 mg/dL
N#Cc1ccn2c(-c3ccncc3)c(-c3ccc(F)cc3)nc2c1  log2 fold change (kinase binding, competitor, MIB/MS competition, item: NPR1; Candida albicans cell lysate; 10 µM; relative to: DMSO): -0.018
CC[C@@H]1[C@H](F)C(=O)N[C@@H]1COc1nccc2cc(C(N)=O)c(OC)cc12  inhibition (ATP-site probe binding, ActivX profiling, item: CDK11, CDK8; THP-1 cell lysate; 0.2 mM, Lys2 site): 2.6%
CN(C(=O)n1cnc(-c2ccc[n+]([O-])c2)c1)C1CCCCC1  AUC(0-t) (item: OEA; human, plasma; 10 mg single dose): 709 ng·h/mL
OC(CCN1CCCCC1)(c1ccccc1)C1CC2C=CC1C2 (stereo not drawn)  EEG Beta1-power Fz-Cz (resting-state EEG; healthy elderly humans; oral, 4 mg, eyes closed, LS mean): 3 µV²
CCc1c(C)nc(-c2ccc(Cl)s2)nc1Nc1ccc(CC(=O)O)cc1  serum TBIL (C57BL/6J mice, MCD diet; intraperitoneal, 0.3 mg/kg daily, MCD diet 6 weeks, dosed last two; relative to: vehicle): decreased
O=C(O)/C=C/c1nccc2c3ccccc3n(Cc3ccc(C4CC4)cc3)c12  decrease in serum uric acid (mouse, acute hyperuricaemia model; oral, 2 mg/kg): 69.4%
COc1ccc(Oc2cc(N(C)CCOc3ccc(CC4SC(=O)NC4=O)cc3)ncn2)cc1 (stereo not drawn)  patients achieving HbA1c below 7% (type 2 diabetes patients; 0.5 mg once daily, 12 weeks): 28.8%
CC(C)[C@H](C(=O)Nc1ccc(C(=O)NO)cc1)c1ccccc1  speech discrimination score, left ear (human; 1.7 4 weeks after dosing; direction not given): 0%
C[C@@H]1COCCN1c1cc([C@]2(O)C[C@H]3CC[C@@H](C2)O3)c2cnn(-c3cc[nH]n3)c2n1  tumour growth inhibition (ATM-deficient gastric cancer PDX mice; 5 mg/kg once daily for 7 days, day 42): 107 ± 1.4%
CC1(C)CCC(CN2CCN(c3ccc(C(=O)NS(=O)(=O)c4ccc(NCC5CCOCC5)c([N+](=O)[O-])c4)c(Oc4cnc5[nH]ccc5c4)c3)CC2)=C(c2ccc(Cl)cc2)C1  EC50 (cell killing; primary canine neoplastic T cells, dog 16; 24 h): 37 nM
NCC(=O)Nc1cncc(-c2nn3c(=O)cc(N4CCNCC4)nc3s2)c1  inhibition (ADP-induced platelet aggregation, light transmission aggregometry; human, stable CAD on aspirin, ex vivo platelets; subcutaneous, 0.05 mg/kg, 15 min post-dose, median value, with: ADP 20 µM): 77.1%
COc1ccc(F)cc1C(=O)NCc1ccc(-c2nn([C@@H](C)C(F)(F)F)c(N)c2C(N)=O)cc1  patients remaining on treatment (MCL patients; dose not given): 57%
N#Cc1ccc2c(c1)[C@H]1CCCN(C(=O)c3ccc4[nH]cnc4c3)[C@H]1C2  total urinary corticosteroids (human, urine; 20 mg, 336 h, day 14 over day -1; relative to: placebo and baseline): 125 % change
NC(=O)c1cnc2[nH]ccc2c1N[C@@H]1[C@@H]2CC3C[C@H]1C[C@@](O)(C3)C2  percent change (CD8+ central memory T cells, flow cytometry; Japanese humans, peripheral blood; 60 mg single dose; relative to: baseline): 0.45%
CCOC(=O)[C@H](CCc1ccccc1)N[C@@H](C)C(=O)N1CCC[C@H]1C(=O)O  heart rate (renal hypertensive rat; sc osmotic minipump, 40 mg/kg/day; relative to: vehicle): no effect
CC(C)(C)C1CCc2c(sc(NC(=O)c3ccco3)c2C(=O)O)C1 (stereo not drawn)  pain response latency (hot plate test; ICR mouse; intragastric, 40 mg/kg, 3 h; relative to: vehicle): no effect
COc1nnc2ccc(N3CCC(c4ccc(OCCN5CCN(C)C(=O)[C@H]5C)cc4)CC3)nn12  patients with target lesion reduction (relapsed/refractory solid tumour or lymphoma patients; dose not given, reduction above 10%): 6.1%
CN(C)C(=O)c1cc2cnc(Nc3ccc(N4CCNCC4)cn3)nc2n1C1CCCC1  GSEA enrichment score (RNA sequencing, item: HALLMARK_TGF_BETA_SIGNALING; MB002 tumour; concentration not given; relative to: vehicle, direction not given): -0.252
c1ccc(-c2n[nH]cc2-c2ccnc3ccccc23)nc1  log2 fold change (kinase binding, competitor, MIB/MS competition, item: RIO2; Candida albicans cell lysate; 100 nM; relative to: DMSO): 0.929
C[C@H]1C[C@H]2CSC(N)=N[C@@]2(c2nc(NC(=O)c3ccc(OC(F)F)cn3)cs2)CO1  percent change from baseline (item: Aβ1-40; healthy adults, plasma; 400 mg single dose, 24 h post-dose; relative to: placebo): -84.9%
C[C@H]1O[C@@H](O[C@H]2CC[C@@]3(C)[C@@H](CC[C@]4(C)[C@@H]3C=C[C@]35OC[C@@]6(CCC(C)(C)C[C@H]63)[C@@H](O)C[C@]54C)[C@]2(C)CO)[C@H](O)[C@@H](O[C@@H]2O[C@H](CO)[C@@H](O)[C@H](O)[C@H]2O)[C@H]1O  Oil Red O area (histology; mice, normal diet, liver; dose not given, high dose): 5.6% and 4.86% and 5.17%
COc1ccc2c3c([nH]c2c1)[C@H](CC(C)C)N1C(=O)[C@H](CC(=O)NC(C)C)NC(=O)[C@@H]1C3  serum concentration (item: protoporphyrin IX; Fech-mutant mice, serum; oral, 100 mg/kg, 0.5 h): 309 ng/mL and 295 ng/mL
C[C@@H](NC(=O)N1C(=O)[C@H](Cc2ccnc(N)c2)[C@H]1C(=O)O)C1CCCCC1  PT AUEC (human; iv infusion, 0.6 mg/kg/h, 24 h, unit not given; relative to: baseline): 133
CC(C)NCC(O)c1ccc(O)c(O)c1 (stereo not drawn)  sarcomere length (ventricular cardiomyocytes, C57BL/6 mouse; dose not given, 0.82 s): 1.56 µm
Cc1n[nH]c2ccc(-c3cc(OC[C@@H](N)Cc4ccccc4)cnc3-c3ccoc3)cc12  log2 fold change (kinase binding, competitor, MIB/MS competition, item: SCH9; Candida albicans cell lysate; 10 µM; relative to: DMSO): -1.05
O=C(COc1ccc(Cl)cc1)NC12CC(c3nnc([C@H]4C[C@@H](OC(F)(F)F)C4)o3)(C1)C2  mRNA level change (item: CHAC1; PBMC ex vivo stimulated, human ALS patients; 200 mg, D28 predose; relative to: baseline): -84.9%
CC(c1cc2ccccc2s1)N(O)C(N)=O (stereo not drawn)  amount (item: LTB4 isomers; human whole blood; 3 µM, with: Escherichia coli): 54 ± 10 pg/mL blood
Cc1c(C)n(Cc2cccc(OC(C)(C)C(=O)O)c2)c2ccc(C(=O)N[C@@H](C)c3ccc(C(C)(C)C)cc3)cc12  locomotor activity (indirect calorimetry; mice, diet-induced obese; dose not given, average over 72 h, end of treatment): 482 ± 269 counts/20 min
N#Cc1ccc2c(-c3ccncc3)c(-c3ccc(F)cc3)nn2c1  log2 fold change (kinase binding, competitor, MIB/MS competition, item: NPR1; Candida albicans cell lysate; 10 µM; relative to: DMSO): 0.113
C[C@@H](O)CCOC(=O)C[C@@H](C)O  metabolite level (item: C18:2-OH acylcarnitine; human, plasma; 60 min, log2-transformed values): -7.63 ± 0.45 µmol/L
CN[C@@H]1COc2c(S(=O)(=O)NC(=O)Nc3c4c(cc5c3CCC5)CCC4)cnn2C1  inhibition (item: IL-18; human participants, whole blood ex vivo; 900 mg twice daily, multiple doses, 152 h, IL-18, circulating, adjusted for, with: LPS/ATP; relative to: baseline): 101%
CCCN1CCCC[C@H]1C(=O)Nc1c(C)cccc1C  motor block (Sprague-Dawley rat, male; sciatic nerve injection, 15 mM): 100 % MPE
O=S(=O)(NCCNC/C=C/c1ccc(Br)cc1)c1cccc2cnccc12  embryos reaching blastocyst (mouse zygotes; 20 µM, 120 h post-hCG): 21.1% and 35.3% and 35%
C[C@H](Oc1ccc(Br)cc1-c1ccon1)C(=O)O  difference from placebo (last response peak; human, tibialis anterior muscle; 800 mg, 30 Hz, single ascending dose): -18.8%
